Assay results collected from several papers.
Lines come from different studies, so protocols differ. Several values in a cell are separate wells, animals, samples, runs or records. ± gives the spread as reported.
CYP2D6: Cytochrome P450 2D6 (CYP2D6, Homo sapiens, UniProt P10635)
Chain of UniProt P10635 (whole entry, looked up): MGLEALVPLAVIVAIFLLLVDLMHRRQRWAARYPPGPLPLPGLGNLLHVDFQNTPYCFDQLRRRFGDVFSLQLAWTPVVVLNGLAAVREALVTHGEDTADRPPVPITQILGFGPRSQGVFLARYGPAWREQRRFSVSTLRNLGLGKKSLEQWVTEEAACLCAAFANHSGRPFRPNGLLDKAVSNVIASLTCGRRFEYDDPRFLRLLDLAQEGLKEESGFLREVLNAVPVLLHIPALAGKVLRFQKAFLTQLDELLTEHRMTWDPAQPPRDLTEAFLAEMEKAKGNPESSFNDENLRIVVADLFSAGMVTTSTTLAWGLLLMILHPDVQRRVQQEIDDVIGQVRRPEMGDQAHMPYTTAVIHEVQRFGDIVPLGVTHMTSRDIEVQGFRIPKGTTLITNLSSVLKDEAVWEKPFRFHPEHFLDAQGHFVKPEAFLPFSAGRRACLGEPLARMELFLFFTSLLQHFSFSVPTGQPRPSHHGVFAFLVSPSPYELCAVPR
Ahr: Aryl hydrocarbon receptor (Ahr, Mus musculus, UniProt P30561)
Chain of UniProt P30561 (whole entry, looked up): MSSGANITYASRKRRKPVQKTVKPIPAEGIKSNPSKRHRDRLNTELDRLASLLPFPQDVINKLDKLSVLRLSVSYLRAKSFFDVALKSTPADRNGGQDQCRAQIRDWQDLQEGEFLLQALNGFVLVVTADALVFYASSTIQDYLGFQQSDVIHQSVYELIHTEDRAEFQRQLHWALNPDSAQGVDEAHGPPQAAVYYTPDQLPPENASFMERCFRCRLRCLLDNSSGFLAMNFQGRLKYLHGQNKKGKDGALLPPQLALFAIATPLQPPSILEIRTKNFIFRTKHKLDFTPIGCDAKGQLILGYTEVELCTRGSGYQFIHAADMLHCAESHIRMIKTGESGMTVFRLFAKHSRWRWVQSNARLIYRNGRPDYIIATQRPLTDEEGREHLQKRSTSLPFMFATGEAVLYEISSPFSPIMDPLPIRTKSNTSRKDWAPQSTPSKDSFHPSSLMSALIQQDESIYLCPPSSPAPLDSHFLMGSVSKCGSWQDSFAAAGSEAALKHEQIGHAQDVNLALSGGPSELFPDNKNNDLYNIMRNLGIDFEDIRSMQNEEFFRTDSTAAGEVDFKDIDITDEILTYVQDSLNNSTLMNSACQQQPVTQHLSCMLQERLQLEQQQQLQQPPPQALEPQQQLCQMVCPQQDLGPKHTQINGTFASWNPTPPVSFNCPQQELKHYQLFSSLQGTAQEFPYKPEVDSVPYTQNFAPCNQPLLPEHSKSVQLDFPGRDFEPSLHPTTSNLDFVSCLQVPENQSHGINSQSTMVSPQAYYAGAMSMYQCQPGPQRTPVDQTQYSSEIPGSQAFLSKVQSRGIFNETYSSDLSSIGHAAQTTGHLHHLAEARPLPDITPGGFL
CYP1B1: Cytochrome P450 1B1 (CYP1B1, Homo sapiens, UniProt Q16678)
Chain of UniProt Q16678 (whole entry, looked up): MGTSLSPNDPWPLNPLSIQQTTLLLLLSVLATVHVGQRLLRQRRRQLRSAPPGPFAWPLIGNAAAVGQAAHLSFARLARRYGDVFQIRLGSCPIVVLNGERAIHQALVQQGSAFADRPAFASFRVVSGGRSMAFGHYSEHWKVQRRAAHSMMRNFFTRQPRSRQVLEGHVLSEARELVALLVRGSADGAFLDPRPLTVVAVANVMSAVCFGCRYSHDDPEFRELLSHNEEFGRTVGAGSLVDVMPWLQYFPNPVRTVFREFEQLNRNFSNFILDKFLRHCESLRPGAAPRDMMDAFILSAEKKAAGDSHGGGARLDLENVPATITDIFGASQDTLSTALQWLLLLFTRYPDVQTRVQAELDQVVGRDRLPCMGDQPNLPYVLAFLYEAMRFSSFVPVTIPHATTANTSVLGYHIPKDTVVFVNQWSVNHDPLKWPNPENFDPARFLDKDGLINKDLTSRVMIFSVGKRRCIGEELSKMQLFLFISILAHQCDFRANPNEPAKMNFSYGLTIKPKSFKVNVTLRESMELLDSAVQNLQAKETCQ
Chain of UniProt P20813 (whole entry, looked up): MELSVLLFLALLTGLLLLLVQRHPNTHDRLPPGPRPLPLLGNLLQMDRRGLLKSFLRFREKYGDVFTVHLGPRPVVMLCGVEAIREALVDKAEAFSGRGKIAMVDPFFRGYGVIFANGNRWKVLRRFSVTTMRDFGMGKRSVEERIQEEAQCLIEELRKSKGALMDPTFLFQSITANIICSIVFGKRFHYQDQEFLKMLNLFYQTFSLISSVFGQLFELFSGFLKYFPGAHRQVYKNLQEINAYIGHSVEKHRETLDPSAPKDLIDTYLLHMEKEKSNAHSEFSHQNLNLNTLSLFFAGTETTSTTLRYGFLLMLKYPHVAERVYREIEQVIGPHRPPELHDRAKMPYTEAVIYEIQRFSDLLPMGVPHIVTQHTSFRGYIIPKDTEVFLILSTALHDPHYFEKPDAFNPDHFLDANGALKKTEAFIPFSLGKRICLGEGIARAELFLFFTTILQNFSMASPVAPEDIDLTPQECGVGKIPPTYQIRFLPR
Chain of UniProt P05181 (whole entry, looked up): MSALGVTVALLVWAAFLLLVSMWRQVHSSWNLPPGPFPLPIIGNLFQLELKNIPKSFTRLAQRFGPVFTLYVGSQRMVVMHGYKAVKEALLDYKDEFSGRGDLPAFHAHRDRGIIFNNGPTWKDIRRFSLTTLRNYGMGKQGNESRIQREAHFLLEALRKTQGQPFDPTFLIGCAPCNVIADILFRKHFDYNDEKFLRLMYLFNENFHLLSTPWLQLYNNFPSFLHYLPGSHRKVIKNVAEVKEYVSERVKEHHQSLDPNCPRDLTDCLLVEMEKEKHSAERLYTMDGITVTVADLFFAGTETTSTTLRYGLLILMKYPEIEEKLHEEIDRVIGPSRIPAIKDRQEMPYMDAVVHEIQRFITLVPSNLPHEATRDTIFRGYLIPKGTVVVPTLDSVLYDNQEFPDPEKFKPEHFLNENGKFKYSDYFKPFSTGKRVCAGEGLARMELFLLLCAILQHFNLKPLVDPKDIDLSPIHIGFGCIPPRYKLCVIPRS
Chain of UniProt P05177 (whole entry, looked up): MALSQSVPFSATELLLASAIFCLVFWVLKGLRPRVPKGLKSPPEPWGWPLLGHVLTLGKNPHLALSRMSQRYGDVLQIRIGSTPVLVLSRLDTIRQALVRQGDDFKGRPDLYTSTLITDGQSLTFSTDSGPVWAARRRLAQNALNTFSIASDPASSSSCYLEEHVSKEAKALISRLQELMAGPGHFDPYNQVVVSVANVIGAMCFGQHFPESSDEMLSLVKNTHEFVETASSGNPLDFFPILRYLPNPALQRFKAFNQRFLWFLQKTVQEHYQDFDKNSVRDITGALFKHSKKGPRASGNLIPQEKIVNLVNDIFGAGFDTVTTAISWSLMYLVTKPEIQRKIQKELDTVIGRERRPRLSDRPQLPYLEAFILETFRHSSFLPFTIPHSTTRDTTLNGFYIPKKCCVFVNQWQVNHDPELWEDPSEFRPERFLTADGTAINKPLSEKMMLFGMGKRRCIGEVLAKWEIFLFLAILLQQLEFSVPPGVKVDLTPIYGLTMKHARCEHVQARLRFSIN
Chain of UniProt P00747 (whole entry, unmodified, looked up): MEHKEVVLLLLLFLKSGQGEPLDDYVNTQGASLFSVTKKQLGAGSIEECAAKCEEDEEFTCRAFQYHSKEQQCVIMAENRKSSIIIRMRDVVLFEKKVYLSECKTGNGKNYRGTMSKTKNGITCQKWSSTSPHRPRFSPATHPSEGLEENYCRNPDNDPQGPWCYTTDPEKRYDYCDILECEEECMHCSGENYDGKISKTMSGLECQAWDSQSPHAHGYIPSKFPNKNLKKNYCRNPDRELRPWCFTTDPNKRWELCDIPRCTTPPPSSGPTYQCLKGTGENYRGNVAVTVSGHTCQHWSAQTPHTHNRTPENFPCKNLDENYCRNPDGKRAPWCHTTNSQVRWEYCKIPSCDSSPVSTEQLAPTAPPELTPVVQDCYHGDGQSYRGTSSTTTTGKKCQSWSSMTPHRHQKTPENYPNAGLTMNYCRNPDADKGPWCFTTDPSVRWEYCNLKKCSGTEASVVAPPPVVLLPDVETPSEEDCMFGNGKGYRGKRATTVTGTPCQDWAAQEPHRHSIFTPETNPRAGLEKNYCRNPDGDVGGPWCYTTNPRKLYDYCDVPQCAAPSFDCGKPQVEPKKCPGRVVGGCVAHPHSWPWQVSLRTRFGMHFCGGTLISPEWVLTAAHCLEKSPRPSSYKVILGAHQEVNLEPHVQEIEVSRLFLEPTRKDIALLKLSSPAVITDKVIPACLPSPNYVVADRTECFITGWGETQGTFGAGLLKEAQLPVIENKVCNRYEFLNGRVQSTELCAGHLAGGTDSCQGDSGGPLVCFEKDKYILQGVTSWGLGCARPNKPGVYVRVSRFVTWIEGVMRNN
Chain of UniProt P06760 (whole entry, looked up): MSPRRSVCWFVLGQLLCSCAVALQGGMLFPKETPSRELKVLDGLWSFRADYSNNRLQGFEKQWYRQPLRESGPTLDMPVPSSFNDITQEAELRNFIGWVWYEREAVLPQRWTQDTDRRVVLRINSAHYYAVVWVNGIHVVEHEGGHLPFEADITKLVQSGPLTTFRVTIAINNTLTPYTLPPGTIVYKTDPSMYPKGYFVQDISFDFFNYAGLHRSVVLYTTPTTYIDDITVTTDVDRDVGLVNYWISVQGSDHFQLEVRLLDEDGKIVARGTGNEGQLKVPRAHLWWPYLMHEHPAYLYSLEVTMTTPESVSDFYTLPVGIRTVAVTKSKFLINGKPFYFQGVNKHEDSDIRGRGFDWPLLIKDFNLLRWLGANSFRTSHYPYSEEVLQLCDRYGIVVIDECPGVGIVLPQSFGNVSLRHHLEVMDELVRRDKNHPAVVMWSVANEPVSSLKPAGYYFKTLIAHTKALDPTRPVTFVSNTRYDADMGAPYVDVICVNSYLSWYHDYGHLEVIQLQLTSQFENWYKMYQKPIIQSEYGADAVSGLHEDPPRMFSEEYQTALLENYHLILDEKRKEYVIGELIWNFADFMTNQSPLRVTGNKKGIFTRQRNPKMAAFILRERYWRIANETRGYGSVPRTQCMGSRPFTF

SMILES = CSc1nc2cc(Cl)c(Oc3cccc(Cl)c3Cl)cc2[nH]1; target = CYP2D6; assay = inhibitor; test system = human liver microsomes; conditions = 2 µM, pH 7.4, added: dextromethorphan; measurement = inhibition; result = < 0%
SMILES = CC[N+]1=C(C=CC=CC=C2N(CCCCCC(=O)NCCN3C(=O)CC(SC[C@@H](NC(=O)[C@@H](CCCNC(=N)N)NC(=O)[C@@H](CCCNC(=N)N)NC(=O)[C@@H](CCCNC(=N)N)NC(=O)[C@@H](CCCNC(=N)N)NC(=O)[C@@H](CCCNC(=N)N)NC(=O)[C@@H](CCCNC(=N)N)NC(=O)[C@@H](CCCNC(=N)N)NC(=O)[C@@H](CCCNC(=N)N)NC(=O)[C@@H](CCCNC(=N)N)NC(=O)[C@H](CC(C)C)NC(=O)[C@H](CCCCN)NC(=O)[C@H](CC(C)C)NC(=O)[C@H](CCC(N)=O)NC(=O)[C@H](CC(C)C)NC(=O)[C@H](CCCNC(=N)N)NC(=O)CCCCCNC(=O)[C@@H](CCC(=O)O)NC(=O)[C@@H](CCC(=O)O)NC(=O)[C@@H](CCC(=O)O)NC(=O)[C@@H](CCC(=O)O)NC(=O)[C@@H](CCC(=O)O)NC(=O)[C@@H](CCC(=O)O)NC(=O)[C@@H](CCC(=O)O)NC(=O)[C@@H](CCC(=O)O)NC(=O)[C@H](N)CCC(=O)O)C(N)=O)C3=O)c3ccc(S(=O)(=O)O)cc3C2(C)C)C(C)(C)c2cc(S(=O)(=O)[O-])ccc21 (some centres unmarked); target = Serine protease 1 (PRSS1, Bos taurus, UniProt P00760); assay = substrate cleavage, substrate, Tricine gel; conditions = 5 µM, 2 h, added: enzyme 50 nM; measurement = cleavage; result = 93 ± 2.9%
SMILES = O=S(=O)(O)Oc1ccc(-c2ccc(Cl)c(Cl)c2)cc1; target = sulfatase, human liver microsomes; assay = substrate; conditions = pH 7.4, 37 °C; measurement = Km; result = 16.6 ± 3.2 µM
SMILES = O=Cc1c(Cc2c[nH]c3ccccc23)[nH]c2ccccc12; target = Ahr; assay = reporter gene, activator; test system = H1L7.5c3 (mouse); conditions = 6 h; measurement = EC50; result = 0.291 µM
SMILES = COCCOCCOc1cnc(C2=N[C@@](C)(C(=O)[O-])CS2)c(O)c1.[Na+]; target = Fe(III); assay = Job's plot; conditions = pH 7.4, total 1.0 mM; measurement = Job's plot maximum mole fraction; result = 0.676
SMILES = COc1c(O[C@@H]2O[C@H](C(=O)O)[C@@H](O)[C@H](O)[C@H]2O)cc(O)c2c(=O)cc(-c3ccccc3)oc12; target = Beta-glucuronidase (Rattus norvegicus, UniProt P06760); assay = hydrolysis, substrate; test system = rat small intestine S9 fraction; measurement = Km; result = 25 to 30 µM
SMILES = CC(C)C[C@H](NC(=O)[C@H](CCC(=O)O)NC(=O)[C@H](C)NC(=O)[C@H](CCC(=O)O)NC(=O)[C@H](CCC(=O)O)NC(=O)[C@H](Cc1c[nH]cn1)NC(=O)[C@H](CCCNC(=N)N)NC(=O)[C@H](CCC(=O)O)NC(=O)[C@H](CC(N)=O)NC(=O)[C@H](CCCCN)NC(=O)[C@H](CC(C)C)NC(=O)[C@H](CCCNC(=N)N)NC(=O)[C@H](CCC(N)=O)NC(=O)[C@H](CC(C)C)NC(=O)[C@H](CCC(=O)O)NC(=O)[C@H](C)NC(=O)[C@H](CC(=O)O)NC(=O)[C@H](C)NC(=O)[C@@H](NC(=O)[C@H](CC(C)C)NC(=O)[C@H](CCCCN)NC(=O)[C@H](CCC(=O)O)NC(=O)[C@@H](NC(=O)[C@H](CO)NC(=O)CN)C(C)C)[C@@H](C)O)C(=O)N[C@@H](CCC(=O)O)C(=O)N[C@@H](CCCNC(=N)N)C(=O)N[C@@H](CC(C)C)C(=O)N[C@@H](CCCCN)C(=O)N[C@@H](CO)C(=O)N[C@@H](CCC(=O)O)C(=O)N[C@@H](Cc1ccc(O)cc1)C(=O)O; target = Plasminogen, kringle 2 domain (PLG, Homo sapiens, UniProt P00747, C188G/E240D/L256Y); assay = circular dichroism; conditions = 30 µM, pH 7.4, room temperature, added: titrated with PLG; measurement = maximum α-helix content; result = 74%
SMILES = Clc1ccc(-c2cc(Cl)c(Cl)c(Cl)c2)cc1; target = Ahr; assay = binding, competitor; conditions = in vitro expressed receptor, added: [3H]TCDD; measurement = Ki; result = 0.034 µM
SMILES = C#CCOCc1ccc(-c2ccccc2)cc1; target = CYP1B1; assay = reverse type I spectral binding; conditions = pH 7.4; measurement = Kd; result = 13 ± 1.5 µM
SMILES = c1cc2c(cc1[C@H]1OC[C@H]3[C@@H]1CO[C@@H]3c1ccc3c(c1)OCO3)OCO2; target = rat CYP2C; assay = mechanism-based inhibitor; test system = rat liver microsomes; conditions = concentration not given, 60 min; measurement = activity recovery; result = no effect
SMILES = CNC(=O)Oc1cc(C)c(SC)c(C)c1; target = Cytochrome P450 1A2 (CYP1A2, Homo sapiens, UniProt P05177); assay = inhibitor; test system = human liver microsomes; conditions = 2 µM, pH 7.4, added: phenacetin; measurement = inhibition; result = 77.5%
SMILES = Clc1ccc(-c2ccc(Cl)c(Cl)c2Cl)cc1Cl; target = Ahr; assay = binding, competitor; conditions = in vitro expressed receptor, added: [3H]TCDD; measurement = Ki; result = 1.62 µM
SMILES = N[C@@H](CS)C(=O)[O-].N[C@@H](CS)C(=O)[O-].[Hg+2]; target = ABCC2 (Homo sapiens, UniProt Q92887); test system = MRP2 membrane vesicles; conditions = 5 µM, 37 °C, mercuric conjugate; how to read = baseline: control vesicles; measurement = time to significant uptake; result = 5 min
SMILES = Oc1cc(O)cc(/C=C/c2ccc(O)c(O)c2)c1; target = UGT1A7 human; assay = 4'-O-glucuronide formation, substrate; conditions = pH 7.4; measurement = Km; result = 43.5 ± 8.1 µM
SMILES = C#CCOCc1ccc2ccccc2c1; target = CYP1B1; assay = reverse type I spectral binding; conditions = pH 7.4; measurement = Kd; result = 100 ± 17 µM
SMILES = CC(C)C=Cc1c(O)cc(/C=C/c2ccc(O)cc2)cc1O; target = UGT1A9 human; assay = 4'-O-glucuronide formation, substrate; conditions = pH 7.4; measurement = Km; result = 21.3 ± 5.2 µM
SMILES = CCC[S+]([O-])c1ccc2[nH]c(NC(=O)OC)nc2c1 (centres unmarked); target = CYP2D6; assay = inhibitor; test system = human liver microsomes; conditions = 2 µM, pH 7.4, added: dextromethorphan; measurement = inhibition; result = < 0%
SMILES = Clc1cc(-c2cc(Cl)c(Cl)c(Cl)c2)cc(Cl)c1Cl; target = Ahr; assay = reporter gene, agonist; test system = Hepa-1c1c7; conditions = 24 h; measurement = EC50; result = 0.0257 ± 0.0046 µM
SMILES = S=P(N1CC1)(N1CC1)N1CC1; target = Cytochrome P450 2B6 (CYP2B6, Homo sapiens, UniProt P20813); assay = enzyme activity, inhibitor; test system = pooled human liver microsomes; conditions = concentration not given; measurement = remaining activity; result = 10.8%
SMILES = C#CCOc1ccccc1-c1ccccc1OCC#C; target = CYP1B1; assay = reverse type I spectral binding; conditions = pH 7.4; measurement = Kd; result = 30 ± 4.5 µM
SMILES = O=[N+]([O-])c1ccc(O)cc1; target = Cytochrome P450 2E1 (CYP2E1, Homo sapiens, UniProt P05181); assay = substrate; test system = pooled human liver microsomes; conditions = 250 µM, pH 7.4, added enzyme to P450 ratio 0; measurement = hydroxylation rate; result = 2.5 ± 0.4 min⁻¹
SMILES = c1ccc2cc3c(ccc4ccccc43)cc2c1; target = CYP1B1; assay = binding, fluorescence; measurement = Kd; result = < 2.5 µM and 2 µM
SMILES = O=S(=O)(O)Oc1ccc(-c2ccc(Cl)cc2)c(Cl)c1; target = sulfatase, human liver microsomes; assay = substrate; conditions = pH 7.4, 37 °C; measurement = Km; result = 9.1 ± 2.2 µM

Some of these lines once more:
SMILES = CC(C)C[C@H](NC(=O)[C@H](CCC(=O)O)NC(=O)[C@H](C)NC(=O)[C@H](CCC(=O)O)NC(=O)[C@H](CCC(=O)O)NC(=O)[C@H](Cc1c[nH]cn1)NC(=O)[C@H](CCCNC(=N)N)NC(=O)[C@H](CCC(=O)O)NC(=O)[C@H](CC(N)=O)NC(=O)[C@H](CCCCN)NC(=O)[C@H](CC(C)C)NC(=O)[C@H](CCCNC(=N)N)NC(=O)[C@H](CCC(N)=O)NC(=O)[C@H](CC(C)C)NC(=O)[C@H](CCC(=O)O)NC(=O)[C@H](C)NC(=O)[C@H](CC(=O)O)NC(=O)[C@H](C)NC(=O)[C@@H](NC(=O)[C@H](CC(C)C)NC(=O)[C@H](CCCCN)NC(=O)[C@H](CCC(=O)O)NC(=O)[C@@H](NC(=O)[C@H](CO)NC(=O)CN)C(C)C)[C@@H](C)O)C(=O)N[C@@H](CCC(=O)O)C(=O)N[C@@H](CCCNC(=N)N)C(=O)N[C@@H](CC(C)C)C(=O)N[C@@H](CCCCN)C(=O)N[C@@H](CO)C(=O)N[C@@H](CCC(=O)O)C(=O)N[C@@H](Cc1ccc(O)cc1)C(=O)O; target = Plasminogen, kringle 2 domain (PLG, Homo sapiens, UniProt P00747, C188G/E240D/L256Y); assay = circular dichroism; conditions = 30 µM, pH 7.4, room temperature, added: titrated with PLG; measurement = maximum α-helix content; result = 74%
SMILES = Clc1ccc(-c2cc(Cl)c(Cl)c(Cl)c2)cc1; target = Ahr; assay = binding, competitor; conditions = in vitro expressed receptor, added: [3H]TCDD; measurement = Ki; result = 0.034 µM
SMILES = C#CCOCc1ccc(-c2ccccc2)cc1; target = CYP1B1; assay = reverse type I spectral binding; conditions = pH 7.4; measurement = Kd; result = 13 ± 1.5 µM
